Measured values pooled from the literature.
Compare with care: the assays were run in different laboratories.
Target: NT-3 growth factor receptor (NTRK3, Homo sapiens, UniProt Q16288)
Chain of UniProt Q16288 (whole entry, looked up): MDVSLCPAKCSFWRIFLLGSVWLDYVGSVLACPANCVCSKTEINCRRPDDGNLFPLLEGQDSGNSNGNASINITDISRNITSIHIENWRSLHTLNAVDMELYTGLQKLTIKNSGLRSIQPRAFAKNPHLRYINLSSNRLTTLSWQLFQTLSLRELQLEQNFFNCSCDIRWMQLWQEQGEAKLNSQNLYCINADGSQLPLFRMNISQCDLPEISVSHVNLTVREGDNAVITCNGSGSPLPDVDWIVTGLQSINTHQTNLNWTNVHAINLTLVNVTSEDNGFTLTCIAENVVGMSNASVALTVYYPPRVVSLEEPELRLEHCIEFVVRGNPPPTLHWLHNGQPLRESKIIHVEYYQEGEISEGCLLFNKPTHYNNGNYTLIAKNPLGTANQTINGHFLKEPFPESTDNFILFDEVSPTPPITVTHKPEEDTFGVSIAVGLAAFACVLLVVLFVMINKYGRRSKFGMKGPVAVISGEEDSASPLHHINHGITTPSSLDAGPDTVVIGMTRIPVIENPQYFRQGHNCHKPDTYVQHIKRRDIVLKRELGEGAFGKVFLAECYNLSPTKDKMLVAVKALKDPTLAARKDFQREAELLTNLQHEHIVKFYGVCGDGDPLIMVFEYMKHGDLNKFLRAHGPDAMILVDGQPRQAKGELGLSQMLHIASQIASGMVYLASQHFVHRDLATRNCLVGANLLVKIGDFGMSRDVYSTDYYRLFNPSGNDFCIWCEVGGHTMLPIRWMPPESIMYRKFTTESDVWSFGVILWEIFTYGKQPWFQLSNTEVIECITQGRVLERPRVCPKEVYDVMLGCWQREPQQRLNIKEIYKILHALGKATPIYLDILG

`O=C(Cc1ccc(OCc2ccccc2)cc1)NC1(C(=O)O)CCN(C(=O)c2ccc(-c3cccc(Cl)c3)cc2)CC1` — result for “activity vs control”: 81% (enzyme activity, inhibitor; 10 µM).
`CN1CC[C@@H](COc2cnc(C#N)cc2-c2ccn3nc(NC(=O)C4CC4)cc3c2)C1` has an inhibition of 11% (enzyme activity, inhibitor; 1 µM).
The inhibition of `C=CC(=O)Nc1cccc(-c2cnc3[nH]cc(C(=O)NC(C)(C)C)c3n2)c1` is reported as -9% (enzyme activity, inhibitor; 0.1 µM).
The remaining binding of `Cc1ccc(-c2c(/C=C(\C#N)C(=O)NC(C)C)n(CCCO)c3ncnc(N)c23)cc1` is reported as 98% (cell-free assay, competition with immobilised ligand; 1 µM).
The remaining binding of `CCN1CCN(Cc2ccc(C(=O)Nc3ccc(C)c(NCc4cnc5[nH]ccc5c4OC)c3)cc2C(F)(F)F)CC1` is reported as 21% (binding, competition with immobilised ligand; 1 µM).
`O=C(Nc1cc(C(=O)Nc2ccc3[nH]ncc3c2)ccc1F)Nc1cc(C(F)(F)F)ccc1F` has an inhibition of 24.8% (enzyme activity, inhibitor, FRET; 1 µM).
With `Cc1cnc2nc1Nc1cccc(c1)COC/C=C/COCc1cc(ccc1OCCN1CCOCC1)N2` the remaining binding was 75% (binding, competition with immobilised ligand; 0.1 µM).
For `NC(=O)C[C@H]1CCc2sc3ncnc(O[C@H]4CC[C@H](N5CCOCC5)CC4)c3c21`, the inhibition was 39% (enzyme activity, inhibitor; 10 µM).
`Nc1ncc(-c2cc(-c3cnn(CC(F)(F)F)c3)ncc2F)nc1C(=O)NC1CNCC(F)C1` (stereo not shown) has a remaining activity of 47.4% (enzyme activity; 1 µM; baseline: DMSO control).
The inhibition of `O=C(CN1CCN(C(=O)c2ccc(F)cc2)CC1)Nc1cccc(C(=O)Nc2ccc3[nH]ncc3c2)c1` is reported as 10.7% (enzyme activity, inhibitor, FRET; 1 µM).
The remaining binding of `COc1cc(Nc2nccc(-c3cnn4nc(OC)ccc34)n2)cc(C(F)(F)F)c1` is reported as 73% (binding, competition with immobilised ligand; 1 µM).
For `O=C(Nc1ccc(F)c(C(=O)Nc2ccc3[nH]ncc3c2)c1)Nc1cc(C(F)(F)F)ccc1F`, the inhibition was 11.1% (enzyme activity, inhibitor, FRET; 1 µM).
`C=CC(=O)N1CCCC(n2c(=O)c3ncccc3n(Cc3ccc(Oc4ccccc4)cc3)c2=O)C1` (stereo not shown) gave a remaining binding of 67% (cell-free assay, competition with immobilised ligand; 1 µM).
`Cc1cc(C(=O)Nc2ccc3[nH]ncc3c2)ccc1NC(=O)Nc1cc(C(F)(F)F)ccc1F` has an inhibition of 17.9% (enzyme activity, inhibitor, FRET; 1 µM).
With `Cc1cccc(O[C@H]2CCC[C@@H](C(C)CNCc3ccncc3)C2)c1` (relative stereo) the inhibition was 0% (cell-free assay; 1 µM).
The remaining binding of `CCN1CCN(Cc2ccc(NC(=O)c3ccc(C)c(NC(=O)c4cncc(-c5cccs5)c4)c3)cc2C(F)(F)F)CC1` is reported as 20% (binding, competition with immobilised ligand; 1 µM).
`CC(C)=CC1OC(C)(C)C2C=C3C(=O)C(Cl)=CC(O)C3C3C(O)C4OC4C(=O)C132` (stereo not shown) gave a remaining binding of 69% (cell-free assay, competition with immobilised ligand; 10 µM).
`O=C(Nc1ccc(C(=O)Nc2ccc3[nH]ncc3c2)c(Br)c1)Nc1cc(C(F)(F)F)ccc1F` has an inhibition of 27.4% (enzyme activity, inhibitor, FRET; 1 µM).
`CNC(=O)C1CCN(c2cc(C)c(F)cc2NC(=O)c2ccc(-c3cc(O)ccc3C)c(C)c2)CC1` gave a remaining binding of 79% (binding, competition with immobilised ligand; 1 µM).

For quick reference, copied from above:
For `NC(=O)C[C@H]1CCc2sc3ncnc(O[C@H]4CC[C@H](N5CCOCC5)CC4)c3c21`, the inhibition was 39% (enzyme activity, inhibitor; 10 µM).
`Nc1ncc(-c2cc(-c3cnn(CC(F)(F)F)c3)ncc2F)nc1C(=O)NC1CNCC(F)C1` (stereo not shown) has a remaining activity of 47.4% (enzyme activity; 1 µM; baseline: DMSO control).
